Published values of several laboratories.
Values joined by “and” are separate records of one study, mostly repeats; a detail may differ.
Target: Tyrosine-protein kinase Blk (BLK, Homo sapiens, UniProt P51451)

Compound | test | setting | how to read | quantity | value
Cc1cccc(O[C@H]2CCC[C@@H](C(C)CNCc3ccncc3)C2)c1 (relative stereo) | enzyme activity, inhibitor | 1 µM | – | inhibition | 0%
COCC12C(=O)NC3C4(C(OC)CC1O)C1CC5(O)C(OC)C(O)C(OC(C)=O)(C1C5OC(=O)c1ccccc1)C3(O)C(OC)C24 (stereo not shown) | kinase activity, inhibitor, ProQinase kinase profiling | 25 µM | baseline: control | remaining activity | 98% and 92%
CN1CC[C@@H](COc2cnc(C#N)cc2-c2ccn3nc(NC(=O)C4CC4)cc3c2)C1 | enzyme activity, inhibitor | 1 µM | – | inhibition | 33%
Nc1ncc2c(n1)-c1c([nH]c3ccc(C4=CCOCC4)cc13)CCC2 | binding, competition with immobilised ligand | 1 µM | – | remaining binding | 100%
Cc1cc(NC(=O)[C@H](O)c2cc(F)cc(F)c2)ccc1-c1cnc(N)c(C(=O)NC(C)C)c1 | binding, competition with immobilised ligand | 0.1 µM | – | remaining binding | 90%
O=C(Cc1ccc(OCc2ccccc2)cc1)NC1(C(=O)O)CCN(C(=O)c2ccc(-c3cccc(Cl)c3)cc2)CC1 | enzyme activity, inhibitor | 10 µM | – | activity vs control | 117%
CNC(=O)C[C@H](Cc1ccc(C#N)cc1)NC(=O)c1cc(-c2ccc(CN[C@H](C)c3ccc(C)cc3)o2)ccc1Cl | enzyme activity, inhibitor | 1 µM | – | activity vs control | 91%
CCN1CCN(Cc2ccc(NC(=O)c3ccc(C)c(NC(=O)c4cncc(-c5cccs5)c4)c3)cc2C(F)(F)F)CC1 | binding, competition with immobilised ligand | 1 µM | – | remaining binding | 2.3%
C=CC(=O)N1CCCC(n2c(=O)c3ncccc3n(Cc3ccc(Oc4ccccc4)cc3)c2=O)C1 (stereo not shown) | cell-free assay, competition with immobilised ligand | 1 µM | – | remaining binding | 86%
C=CC(=O)Nc1cccc(-c2cnc3[nH]cc(C(=O)NC(C)(C)C)c3n2)c1 | kinase activity | 0.1 µM | – | inhibition | 30% and 29%
C[C@H]1CN(C(=O)c2cn(-c3ccnc(N)n3)c3cc(C#CC4(O)CCCCC4)ccc23)CCN1 | enzyme activity, inhibitor, FRET | 1 µM | – | inhibition | -2%
C=CC(=O)N1CCc2ccc(-n3c(=O)ccc4cnc5ccc(-c6cnn(C)c6)cc5c43)cc21 | KINOMEscan | 1 µM | baseline: DMSO control | remaining binding | 100%
NC(=O)C[C@H]1CCc2sc3ncnc(O[C@H]4CC[C@H](N5CCOCC5)CC4)c3c21 | enzyme activity, inhibitor | 10 µM | – | inhibition | 12%
COc1cc(Nc2nc(C)cc(-c3cnn4nc(OC)ccc34)n2)cc(C(F)(F)F)c1 | inhibitor | 1 µM | baseline: control | remaining activity | 100%
COc1c(Cl)cccc1Nc1c(-c2ccncc2C#C[C@@]2(C)CCCN2C(=O)/C=C/CN(C)C)[nH]c2c1C(=O)NCC2 | binding, competition with immobilised ligand | 3 µM | – | remaining binding | 56%
CN1CCN(Cc2ccc(-c3ccc(CO[C@H]4CCC[C@@H]4NC(=O)c4cc(-c5cnn(C)c5)cnc4N)cc3)cc2)CC1 | enzyme activity, inhibitor | 0.1 µM | – | inhibition | 0%

Some of these lines once more:
Compound | test | setting | how to read | quantity | value
C=CC(=O)Nc1cccc(-c2cnc3[nH]cc(C(=O)NC(C)(C)C)c3n2)c1 | kinase activity | 0.1 µM | – | inhibition | 30% and 29%
